# Measurements collected from several papers.
# Lines come from different studies, so protocols differ.
# Organism: Pseudomonas aeruginosa
Structure (SMILES),test,system,conditions,how to read,MIC
CC(C)C[C@H](NC(=O)[C@H](CCCCN)NC(=O)[C@H](CCCCNC(=O)[C@H](CC(C)C)NC(=O)[C@H](CCCCN)NC(=O)[C@H](CCCCNC(=O)[C@H](CC(C)C)NC(=O)[C@H](CCCCN)NC(=O)[C@H](CCCCNC(=O)[C@H](CC(C)C)NC(=O)[C@@H](N)CCCCN)NC(=O)[C@H](CC(C)C)NC(=O)[C@@H](N)CCCCN)NC(=O)[C@H](CC(C)C)NC(=O)[C@H](CCCCN)NC(=O)[C@H](CCCCNC(=O)[C@H](CC(C)C)NC(=O)[C@@H](N)CCCCN)NC(=O)[C@H](CC(C)C)NC(=O)[C@@H](N)CCCCN)NC(=O)[C@H](CC(C)C)NC(=O)[C@H](CCCCN)NC(=O)[C@H](CCCCNC(=O)[C@H](CC(C)C)NC(=O)[C@H](CCCCN)NC(=O)[C@H](CCCCNC(=O)[C@H](CC(C)C)NC(=O)[C@@H](N)CCCCN)NC(=O)[C@H](CC(C)C)NC(=O)[C@@H](N)CCCCN)NC(=O)[C@H](CC(C)C)NC(=O)[C@H](CCCCN)NC(=O)[C@H](CCCCNC(=O)[C@H](CC(C)C)NC(=O)[C@@H](N)CCCCN)NC(=O)[C@H](CC(C)C)NC(=O)[C@@H](N)CCCCN)C(N)=O,,"PAO1, LB medium",,,0.44 µM
CC(C)[C@H](NC(=O)[C@H]1NC(=O)[C@H](CO)NC(=O)[C@H](CC(N)=O)NC(=O)[C@@H](N)Cc2c[nH]c3cc(ccc23)C1C(N)=O)C(=O)N[C@H]1Cc2cn(cn2)C(c2ccc(O)cc2)[C@@H](C(=O)N[C@@H](CCCNC(=N)N)C(=O)N[C@@H](Cc2ccccc2)C(=O)O)NC(=O)[C@H](CO)NC1=O (stereo partly drawn),,PA01,,,8 µg/mL
CC(C)(C)c1ccc(COc2cc3c(=O)c(C(=O)NCCNCCO)cn(Cc4ccccc4)c3cc2Cl)cc1,,ATCC 27853,,≥80% growth inhibition,< 0.25 µg/mL
CC[C@@H](C)[C@@H](NC(=O)[C@@H](C)NC(=O)[C@@H](CCCCN)NC(=O)[C@@H](CC(C)C)NC(=O)[C@@H](C)NC(=O)[C@H](NC(=O)[C@@H](Cc1c[nH]cn1)NC(=O)[C@@H](CC(C)C)NC(=O)[C@H](NC(=O)[C@H](NC(=O)[C@@H](CCCCN)NC(=O)[C@@H](CCCCN)NC(=O)[C@@H](C)NC(=O)[C@@H](CO)NC(=O)[C@@H](CCCCN)NC(=O)[C@@H](Cc1ccccc1)NC(=O)[C@H](NC(=O)[C@@H](CCCCN)NC(=O)[C@@H](CC(C)C)NC(=O)[C@@H](Cc1ccccc1)NC(=O)[C@@H](CO)NC(=O)[C@@H](CCCCN)NC(=O)[C@@H](Cc1c[nH]c2ccccc12)NC(=O)[C@@H](CCCCN)NC(C)=O)[C@H](C)O)[C@H](C)O)C(C)C)[C@H](C)O)C(=O)N[C@H](CO)C(=O)N[C@H](CO)C(N)=O,broth microdilution,PAK,"24 h, 37 °C",,5.2 µM
CC[C@H](C)[C@@H]1NC(=O)CNC(=O)[C@H](CCCCN)NC(=O)[C@H](C)NC(=O)[C@H](CCC(=O)O)NC(=O)[C@H](Cc2ccccc2)NC(=O)[C@H](CO)NC(=O)[C@H](CC(C)C)NC(=O)[C@H](C(C)C)NC(=O)[C@H](CC(=O)O)NC(=O)[C@@H](NC(=O)[C@@H](NC(=O)[C@@H](N)C(C)C)[C@@H](C)O)CSSC[C@@H]2NC(=O)[C@H](CO)NC(=O)CNC(=O)CNC(=O)[C@H](CCCCN)NC(=O)[C@H](CCCCN)NC(=O)[C@H](CCCNC(=N)N)NC(=O)[C@H](CC(C)C)NC(=O)[C@H](C)NC(=O)[C@H]([C@@H](C)CC)NC(=O)[C@H](CSSC[C@@H](C(=O)N[C@@H](CCCNC(=N)N)C(=O)N[C@@H](CC(N)=O)C(=O)O)NC(=O)[C@H](C(C)C)NC(=O)[C@H](C)NC(=O)[C@H](C(C)C)NC(=O)CNC(=O)[C@H](CC(N)=O)NC(=O)[C@H](CCC(N)=O)NC2=O)NC(=O)[C@H](Cc2c[nH]cn2)NC(=O)[C@H](CC(C)C)NC(=O)[C@H](C)NC(=O)[C@H](C)NC(=O)[C@H](C)NC(=O)[C@H](CO)NC(=O)[C@H](Cc2c[nH]cn2)NC(=O)[C@H](CC(N)=O)NC(=O)[C@H](C(C)C)NC(=O)[C@H](C)NC1=O,broth microdilution,KCTC 1637,"16 h, 37 °C",,> 100 µM
C[C@H](N)[C@@H](CCCCCCCCCCCCCCC(=O)CCCCCCC[C@@H](O)[C@@H](C)N)O[C@@H]1O[C@H](CO)[C@H](O)[C@H](O)[C@H]1O,"microbial growth, resazurin",ATCC27853,6 h,,6.47 µM
CC[C@H](C)[C@H](NC(=O)[C@@H](CCCNC(=N)N)NC(=O)[C@H](CCCNC(=N)N)NC(=O)[C@H](CCCNC(=N)N)NC(=O)[C@H](Cc1c[nH]c2ccccc12)NC(=O)[C@H](CCCNC(=N)N)NC(=O)[C@@H]1CCCN1C(=O)[C@H](CCCNC(=N)N)NC(=O)[C@@H]1CCCN1C(=O)[C@H](CC(C)C)NC(=O)[C@H](Cc1ccc(O)cc1)NC(=O)[C@@H]1CCCN1C(=O)[C@@H]1CCCN1C(=O)[C@H](CCCCN)NC(=O)[C@H](CC(=O)O)NC(=O)[C@@H](N)C(C)C)C(=O)N[C@@H](Cc1ccc(O)cc1)C(=O)N[C@@H](CC(N)=O)C(=O)N[C@H](CCCNC(=N)N)C(N)=O,broth microdilution,DSM 1117,18 h,,32 µg/mL
CC[C@H](C)[C@@H]1NC(=O)[C@H](CC(C)C)NC(=O)[C@@H](NC(=O)[C@H](CO)NC(=O)[C@H](CCCNC(=N)N)NC(=O)[C@@H](N)CO)CSSC[C@@H](C(=O)N[C@@H](CCC(N)=O)C(=O)N[C@@H](CCCNC(=N)N)C(=O)N[C@@H](CC(C)C)C(=O)N[C@@H](Cc2ccccc2)C(N)=O)NC(=O)[C@H](C(C)C)NC1=O,broth microdilution,ATCC 27853,,,> 100 µg/mL
CC(C)C[C@H](NC(=O)[C@@H]1CSCC(=O)N[C@@H](CCCCN)C(=O)N[C@@H](CC(C)C)C(=O)N[C@@H](CCCCN)C(=O)NCCCC[C@@H]2NC(=O)[C@H](CCCCN)NC(=O)[C@H](CC(C)C)NC(=O)[C@H](CCCCN)NC(=O)CSC[C@H](NC(=O)[C@H](CC(C)C)NC(=O)[C@H](CC(C)C)NC(=O)[C@H](CCCCN)NC2=O)C(=O)N[C@@H](CCCCN)C(=O)N[C@@H](CC(C)C)C(=O)N[C@@H](CCCCN)C(=O)N1)C(N)=O,,PAO1,18 h,,256 µg/mL
CC[C@H](C)[C@H](NC(=O)[C@@H](NC(=O)[C@H](CCCCN)NC(=O)CNC(=O)[C@@H](NC(=O)[C@@H](NC(=O)[C@H](CO)NC(=O)[C@@H](NC(=O)[C@@H](NC(=O)[C@@H]1CCCN1C(=O)[C@@H](NC(=O)[C@@H](NC(=O)CN)[C@@H](C)CC)[C@@H](C)CC)[C@@H](C)CC)[C@@H](C)CC)[C@@H](C)CC)[C@@H](C)CC)[C@@H](C)CC)C(N)=O,broth microdilution,,,,> 30 µM
CC(C)C[C@@H]1NC(=O)[C@H](CC(C)C)NC(=O)[C@H](CC(C)C)NC(=O)[C@@H]2CSCC(=O)N[C@@H](CCCCN)C(=O)N[C@@H](CCCCN)C(=O)N[C@@H](CCCCN)C(=O)N[C@@H](CCCCNC(=O)[C@H](CCCCN)NC(=O)[C@H](CCCCN)NC(=O)[C@H](CCCCN)NC(=O)CSC[C@@H](C(=O)N[C@@H](CCCCN)C(N)=O)NC1=O)C(=O)N[C@@H](CCCCN)C(=O)N[C@@H](CC(C)C)C(=O)N[C@@H](CC(C)C)C(=O)N2,,PAO1,18 h,,32 µg/mL
CCCCCCCC[C@@H]1NC(=O)[C@@H](Cc2ccccc2)NC(=O)[C@H](CCN)NC(=O)[C@@H](NC(=O)[C@H](CCN)NC(=O)[C@@H](NC(=O)[C@H](CCN)NC(=O)c2ccc(-c3ccccc3)cc2)[C@@H](C)O)CCNC(=O)[C@H]([C@@H](C)O)NC(=O)[C@H](CCN)NC(=O)[C@H](CCN)NC1=O,broth microdilution,"FADDI-PA070, polymyxin resistant, CAMHB","18 h, 37 °C",,2 µg/mL

# A few entries again:
Structure (SMILES),test,system,conditions,how to read,MIC
CC(C)C[C@@H]1NC(=O)[C@H](CC(C)C)NC(=O)[C@H](CC(C)C)NC(=O)[C@@H]2CSCC(=O)N[C@@H](CCCCN)C(=O)N[C@@H](CCCCN)C(=O)N[C@@H](CCCCN)C(=O)N[C@@H](CCCCNC(=O)[C@H](CCCCN)NC(=O)[C@H](CCCCN)NC(=O)[C@H](CCCCN)NC(=O)CSC[C@@H](C(=O)N[C@@H](CCCCN)C(N)=O)NC1=O)C(=O)N[C@@H](CCCCN)C(=O)N[C@@H](CC(C)C)C(=O)N[C@@H](CC(C)C)C(=O)N2,,PAO1,18 h,,32 µg/mL
CC(C)C[C@H](NC(=O)[C@@H]1CSCC(=O)N[C@@H](CCCCN)C(=O)N[C@@H](CC(C)C)C(=O)N[C@@H](CCCCN)C(=O)NCCCC[C@@H]2NC(=O)[C@H](CCCCN)NC(=O)[C@H](CC(C)C)NC(=O)[C@H](CCCCN)NC(=O)CSC[C@H](NC(=O)[C@H](CC(C)C)NC(=O)[C@H](CC(C)C)NC(=O)[C@H](CCCCN)NC2=O)C(=O)N[C@@H](CCCCN)C(=O)N[C@@H](CC(C)C)C(=O)N[C@@H](CCCCN)C(=O)N1)C(N)=O,,PAO1,18 h,,256 µg/mL
